Measured values from different studies.
Protocols differ between the studies behind these lines.
UniProt Q8NEB9, sequence (whole entry, looked up): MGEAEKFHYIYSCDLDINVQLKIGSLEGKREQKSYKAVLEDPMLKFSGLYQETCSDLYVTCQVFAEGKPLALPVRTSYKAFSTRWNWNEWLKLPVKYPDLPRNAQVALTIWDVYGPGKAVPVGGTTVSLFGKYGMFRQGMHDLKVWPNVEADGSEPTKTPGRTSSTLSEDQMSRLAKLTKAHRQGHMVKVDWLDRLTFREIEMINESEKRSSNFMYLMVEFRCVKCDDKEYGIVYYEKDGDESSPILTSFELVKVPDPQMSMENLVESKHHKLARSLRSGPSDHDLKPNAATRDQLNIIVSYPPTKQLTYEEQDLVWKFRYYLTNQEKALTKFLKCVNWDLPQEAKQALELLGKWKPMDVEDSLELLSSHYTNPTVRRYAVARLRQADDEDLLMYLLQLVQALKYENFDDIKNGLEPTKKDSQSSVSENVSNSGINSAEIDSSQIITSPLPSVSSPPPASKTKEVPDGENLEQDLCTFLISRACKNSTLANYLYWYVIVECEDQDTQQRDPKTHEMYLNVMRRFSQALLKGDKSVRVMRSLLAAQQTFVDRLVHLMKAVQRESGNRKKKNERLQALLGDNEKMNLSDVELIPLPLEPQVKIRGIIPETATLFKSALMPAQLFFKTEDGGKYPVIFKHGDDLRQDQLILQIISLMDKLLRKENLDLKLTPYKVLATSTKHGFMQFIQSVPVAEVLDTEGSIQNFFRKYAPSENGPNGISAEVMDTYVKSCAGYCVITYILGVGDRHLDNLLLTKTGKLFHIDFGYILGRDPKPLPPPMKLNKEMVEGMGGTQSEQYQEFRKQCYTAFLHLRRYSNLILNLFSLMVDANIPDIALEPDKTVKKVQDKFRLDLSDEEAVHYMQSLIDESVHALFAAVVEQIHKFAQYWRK
UniProt O95747, sequence (whole entry, looked up): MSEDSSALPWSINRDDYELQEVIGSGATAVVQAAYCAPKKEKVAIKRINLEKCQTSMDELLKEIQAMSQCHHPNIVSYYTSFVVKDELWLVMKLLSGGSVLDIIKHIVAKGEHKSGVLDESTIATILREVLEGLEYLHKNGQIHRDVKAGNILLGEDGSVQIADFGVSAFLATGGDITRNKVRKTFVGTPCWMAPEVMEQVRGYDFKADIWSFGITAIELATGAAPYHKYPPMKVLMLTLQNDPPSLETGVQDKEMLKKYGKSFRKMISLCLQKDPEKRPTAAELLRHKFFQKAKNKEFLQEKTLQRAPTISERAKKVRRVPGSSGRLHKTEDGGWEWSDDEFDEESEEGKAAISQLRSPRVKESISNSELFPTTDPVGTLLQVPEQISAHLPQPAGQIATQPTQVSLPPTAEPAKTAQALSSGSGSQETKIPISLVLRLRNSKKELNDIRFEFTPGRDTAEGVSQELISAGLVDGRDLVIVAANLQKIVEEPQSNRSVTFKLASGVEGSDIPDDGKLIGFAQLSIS
UniProt P10721, sequence (whole entry, unmodified, looked up): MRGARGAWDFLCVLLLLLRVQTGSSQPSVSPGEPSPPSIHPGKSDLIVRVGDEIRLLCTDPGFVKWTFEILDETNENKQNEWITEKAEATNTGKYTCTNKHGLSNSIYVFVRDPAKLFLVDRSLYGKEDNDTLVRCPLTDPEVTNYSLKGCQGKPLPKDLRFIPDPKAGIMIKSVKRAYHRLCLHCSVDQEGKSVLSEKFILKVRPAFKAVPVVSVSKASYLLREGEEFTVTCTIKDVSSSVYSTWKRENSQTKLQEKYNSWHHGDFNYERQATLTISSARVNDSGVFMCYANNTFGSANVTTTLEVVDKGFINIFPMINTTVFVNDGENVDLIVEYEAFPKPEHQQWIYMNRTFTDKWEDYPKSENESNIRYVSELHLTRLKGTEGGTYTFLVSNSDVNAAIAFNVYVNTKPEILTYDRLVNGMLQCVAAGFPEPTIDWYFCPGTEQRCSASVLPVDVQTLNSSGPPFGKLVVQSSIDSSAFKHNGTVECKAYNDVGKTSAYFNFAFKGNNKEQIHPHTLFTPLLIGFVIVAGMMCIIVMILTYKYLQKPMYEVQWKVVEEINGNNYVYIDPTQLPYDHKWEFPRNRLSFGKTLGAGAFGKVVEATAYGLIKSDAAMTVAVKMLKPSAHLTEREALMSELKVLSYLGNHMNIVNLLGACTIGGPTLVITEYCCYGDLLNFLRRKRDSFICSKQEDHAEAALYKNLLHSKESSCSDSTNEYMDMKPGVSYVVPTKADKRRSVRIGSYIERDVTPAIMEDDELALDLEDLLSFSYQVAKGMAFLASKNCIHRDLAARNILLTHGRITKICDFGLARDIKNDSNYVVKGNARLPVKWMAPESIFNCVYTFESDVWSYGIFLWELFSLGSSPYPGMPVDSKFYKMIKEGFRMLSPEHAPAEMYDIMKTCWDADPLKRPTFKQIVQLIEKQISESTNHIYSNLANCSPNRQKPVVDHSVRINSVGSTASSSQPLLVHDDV
UniProt P42679, sequence (whole entry, looked up): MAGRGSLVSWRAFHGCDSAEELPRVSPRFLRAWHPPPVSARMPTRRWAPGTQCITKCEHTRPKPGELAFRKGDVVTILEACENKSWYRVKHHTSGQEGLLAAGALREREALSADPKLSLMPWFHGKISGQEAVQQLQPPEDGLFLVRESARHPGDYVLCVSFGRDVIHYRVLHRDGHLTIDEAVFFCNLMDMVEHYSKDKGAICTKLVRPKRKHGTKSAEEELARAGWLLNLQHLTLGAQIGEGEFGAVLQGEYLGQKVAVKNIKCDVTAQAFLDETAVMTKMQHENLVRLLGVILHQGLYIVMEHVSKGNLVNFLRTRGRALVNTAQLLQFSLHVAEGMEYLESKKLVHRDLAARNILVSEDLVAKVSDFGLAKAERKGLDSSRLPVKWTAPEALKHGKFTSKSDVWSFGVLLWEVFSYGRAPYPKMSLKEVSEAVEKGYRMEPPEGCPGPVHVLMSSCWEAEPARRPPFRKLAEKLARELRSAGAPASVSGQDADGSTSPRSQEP
UniProt P35968, sequence (whole entry, looked up): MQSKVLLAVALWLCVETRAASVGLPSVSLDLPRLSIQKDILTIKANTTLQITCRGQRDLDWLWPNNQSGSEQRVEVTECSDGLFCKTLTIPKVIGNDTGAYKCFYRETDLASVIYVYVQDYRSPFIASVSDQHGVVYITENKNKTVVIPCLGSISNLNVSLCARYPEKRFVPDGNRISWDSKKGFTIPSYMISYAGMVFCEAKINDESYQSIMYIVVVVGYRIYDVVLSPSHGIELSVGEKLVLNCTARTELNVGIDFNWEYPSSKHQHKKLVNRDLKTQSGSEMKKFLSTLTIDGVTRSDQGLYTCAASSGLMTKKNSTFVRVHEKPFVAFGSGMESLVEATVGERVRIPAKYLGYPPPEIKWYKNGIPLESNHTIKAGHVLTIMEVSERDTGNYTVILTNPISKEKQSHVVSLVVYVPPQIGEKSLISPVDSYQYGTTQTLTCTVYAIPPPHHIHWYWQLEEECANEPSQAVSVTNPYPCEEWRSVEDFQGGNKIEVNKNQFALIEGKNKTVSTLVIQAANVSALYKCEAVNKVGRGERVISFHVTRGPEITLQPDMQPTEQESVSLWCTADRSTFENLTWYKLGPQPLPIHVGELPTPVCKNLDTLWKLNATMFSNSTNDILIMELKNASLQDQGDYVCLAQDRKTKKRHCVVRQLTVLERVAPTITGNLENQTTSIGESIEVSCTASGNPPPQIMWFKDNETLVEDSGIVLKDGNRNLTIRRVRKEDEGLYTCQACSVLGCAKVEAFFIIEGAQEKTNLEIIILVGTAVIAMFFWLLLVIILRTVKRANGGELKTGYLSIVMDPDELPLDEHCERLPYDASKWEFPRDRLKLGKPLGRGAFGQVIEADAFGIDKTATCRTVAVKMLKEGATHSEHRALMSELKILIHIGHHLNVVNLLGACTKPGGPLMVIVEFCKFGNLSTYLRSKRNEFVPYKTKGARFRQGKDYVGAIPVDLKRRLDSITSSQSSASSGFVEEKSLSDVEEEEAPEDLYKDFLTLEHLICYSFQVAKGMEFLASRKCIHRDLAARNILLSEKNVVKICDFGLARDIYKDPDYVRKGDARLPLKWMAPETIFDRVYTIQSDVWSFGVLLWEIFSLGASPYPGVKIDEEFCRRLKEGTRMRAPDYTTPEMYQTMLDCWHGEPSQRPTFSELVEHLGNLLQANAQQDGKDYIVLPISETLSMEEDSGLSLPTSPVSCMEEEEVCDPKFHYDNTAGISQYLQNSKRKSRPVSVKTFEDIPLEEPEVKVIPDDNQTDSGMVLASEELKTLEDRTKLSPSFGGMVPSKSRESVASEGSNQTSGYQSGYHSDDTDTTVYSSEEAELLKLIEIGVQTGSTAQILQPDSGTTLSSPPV
UniProt P51813, sequence (whole entry, looked up): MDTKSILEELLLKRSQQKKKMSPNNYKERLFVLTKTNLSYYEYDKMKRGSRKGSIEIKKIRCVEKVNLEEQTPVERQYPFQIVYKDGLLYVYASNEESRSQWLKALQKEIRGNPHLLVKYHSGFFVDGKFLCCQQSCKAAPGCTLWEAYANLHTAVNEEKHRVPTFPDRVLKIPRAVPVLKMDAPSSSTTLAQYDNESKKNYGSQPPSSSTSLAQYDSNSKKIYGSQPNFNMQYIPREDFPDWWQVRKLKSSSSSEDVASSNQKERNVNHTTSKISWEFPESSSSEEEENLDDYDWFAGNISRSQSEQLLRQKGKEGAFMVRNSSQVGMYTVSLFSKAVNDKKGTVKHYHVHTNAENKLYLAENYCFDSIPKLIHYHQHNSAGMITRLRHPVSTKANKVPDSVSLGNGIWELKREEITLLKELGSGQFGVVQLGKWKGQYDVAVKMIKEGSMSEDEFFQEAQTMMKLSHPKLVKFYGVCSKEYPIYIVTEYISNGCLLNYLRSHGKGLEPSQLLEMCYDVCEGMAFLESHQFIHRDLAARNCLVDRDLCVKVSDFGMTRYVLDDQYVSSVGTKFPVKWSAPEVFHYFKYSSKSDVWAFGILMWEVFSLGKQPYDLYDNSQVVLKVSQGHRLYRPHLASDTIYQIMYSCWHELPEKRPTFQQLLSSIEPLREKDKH

N[C@H]1CCN(c2nccc(-c3cnn4ncccc34)n2)C1 has a remaining binding of 100% (MAP3K13 (Homo sapiens, UniProt O43283); binding; 1 µM).
For C1=C/COCc2cc(ccc2OCCN2CCCC2)Nc2nccc(n2)-c2cccc(c2)COC/1, the remaining binding was 40% (KIT (Homo sapiens, UniProt P10721, D816H); binding; 0.1 µM).
C[C@]1(O)CCCN(c2nc(Nc3ccc(S(=O)(=O)N[C@H]4CC[C@H](CN5CCN(c6ccc(C7CCC(=O)NC7=O)cc6F)CC5)CC4)cc3Cl)ncc2C(F)(F)F)C1 (stereo partly drawn) gave a remaining binding of 58% (CDK2 (Homo sapiens, UniProt P24941); binding, competition with immobilised ligand; 1 µM).
C=CC(=O)N1CCC(COCC(=O)N2CCN(c3nc(-c4cnc(N)nc4C(F)F)nc(N4CCOC[C@@H]4C)n3)CC2)CC1 has a remaining binding of 100% (MAP3K3 (Homo sapiens, UniProt Q99759); binding, competition with immobilised ligand; 1 µM).
The remaining binding of CCCCC(=O)Nc1ccc(-c2ccc3ncn(CCC)c(=O)c3c2)cn1 is reported as 100% (TAOK2 (Homo sapiens, UniProt Q9UL54); binding, competition with immobilised ligand; 0.5 µM).
CNc1ncc2c(/C=C/C(=O)N3CCC(OC)CC3)nn(Cc3cccc(C(F)(F)F)c3)c2n1 gave a remaining activity of 102% (MATK (Homo sapiens, UniProt P42679); enzyme activity, inhibitor, radiometric; 1 µM).
With Cc1cc([C@@H](C)Nc2ccccc2C(=O)O)c2nc(N3CCC(F)(F)CC3)c(C#N)c(=O)n2c1 the remaining binding was 83% (KDR (Homo sapiens, UniProt P35968); binding, competition with immobilised ligand; 10 µM).
FC(F)(F)Oc1cccc(-c2cnc3ccc(-c4ccncc4)nn23)c1 has a remaining binding of 76% (Ribosomal protein S6 kinase alpha-5, C-terminal kinase domain (RPS6KA5, Homo sapiens, UniProt O75582); binding, competition with immobilised ligand; 5 µM).
For COc1ccc2oc(-c3ccc4nc(N)oc4c3)c/c(=N\c3ccccc3NC(=O)CCN)c2c1, the remaining binding was 92% (BMX (Homo sapiens, UniProt P51813); binding; 1 µM).
With C[C@]1(O)CCCN(c2nc(Nc3ccc(S(=O)(=O)N[C@H]4CC[C@H](CN5CCN(c6ccc(C7CCC(=O)NC7=O)cc6F)CC5)CC4)cc3F)ncc2C(F)(F)F)C1 (stereo partly drawn) the remaining binding was 96% (CDK8 (Homo sapiens, UniProt P49336); binding, competition with immobilised ligand; 1 µM).
The remaining binding of F[C@@H]1CCN(c2nccc(-c3cnn4ncccc34)n2)C1 is reported as 100% (PIK3C3 (Homo sapiens, UniProt Q8NEB9); binding; 1 µM).
With COc1cc(-c2cncc3c2CN(C)Cc2cc(N4CCNCC4)ccc2-3)cc(OC)c1OC the remaining activity was 103% (OXSR1 (Homo sapiens, UniProt O95747); enzyme activity, inhibitor; 1 µM).

A few entries again:
For COc1ccc2oc(-c3ccc4nc(N)oc4c3)c/c(=N\c3ccccc3NC(=O)CCN)c2c1, the remaining binding was 92% (BMX (Homo sapiens, UniProt P51813); binding; 1 µM).
